Measured values collected from several papers.
A part holds a random share of what one study measured. Positions count from the first letter of the parent shown.

Series 1 — technique: aptamer microarray, sandwich; form: DNA with 2'F-ANA; medium: in vitro; concentration: 200 nM; added: Cy3 exosite-II aptamer, 400 nM; direction: higher = stronger binding; sequence: GGTTGGTGTGGTTGG
Target: Prothrombin, mature alpha-thrombin (F2, Homo sapiens, UniProt P00734)
Notes: whole 15-mer aptamer, many near background
Modification | mean fluorescence intensity [a.u.]
2'F-ANA at 1 3 4 5 6 10 12 14 | 46.6
2'F-ANA at 1 3 4 7 8 11 13 14 | 104
2'F-ANA at 1 2 4 5 7 9 10 12 13 | 151
2'F-ANA at 1 5 8 9 13 | 48.9
2'F-ANA at 1 7 12 | 385
2'F-ANA at 1 2 11 13 14 | 50.5
2'F-ANA at 2 3 5 7 10 12 13 | 56.2
2'F-ANA at 2 5 6 7 13 14 15 | 53.4
2'F-ANA at 1 2 3 4 11 12 13 14 15 | 106
2'F-ANA at 1 2 10 12 | 66
2'F-ANA at 1 2 3 5 6 9 10 11 12 13 14 15 | 59.9
2'F-ANA at 2 4 6 11 12 13 15 | 277
2'F-ANA at 2 4 5 6 7 8 9 11 12 14 | 47
2'F-ANA at 2 3 5 7 10 13 14 15 | 63.9
2'F-ANA at 5 9 10 11 15 | 51.3
2'F-ANA at 1 2 5 6 9 10 11 12 | 53.7
2'F-ANA at 1 2 3 6 9 | 201
2'F-ANA at 2 5 7 8 9 15 | 82.5

Series 2 — technique: RNA Bind-n-Seq; form: RNA; medium: in vitro; concentration: 1 µM; notes: whole 134-nt RNA, ends assumed; added: 150 mM KCl; reference: input library; direction: higher = stronger binding
Target: Ras GTPase-activating protein-binding protein 1, C-terminal RGG region (G3BP1, Homo sapiens, UniProt Q13283)
UniProt Q13283, sequence (whole entry, looked up): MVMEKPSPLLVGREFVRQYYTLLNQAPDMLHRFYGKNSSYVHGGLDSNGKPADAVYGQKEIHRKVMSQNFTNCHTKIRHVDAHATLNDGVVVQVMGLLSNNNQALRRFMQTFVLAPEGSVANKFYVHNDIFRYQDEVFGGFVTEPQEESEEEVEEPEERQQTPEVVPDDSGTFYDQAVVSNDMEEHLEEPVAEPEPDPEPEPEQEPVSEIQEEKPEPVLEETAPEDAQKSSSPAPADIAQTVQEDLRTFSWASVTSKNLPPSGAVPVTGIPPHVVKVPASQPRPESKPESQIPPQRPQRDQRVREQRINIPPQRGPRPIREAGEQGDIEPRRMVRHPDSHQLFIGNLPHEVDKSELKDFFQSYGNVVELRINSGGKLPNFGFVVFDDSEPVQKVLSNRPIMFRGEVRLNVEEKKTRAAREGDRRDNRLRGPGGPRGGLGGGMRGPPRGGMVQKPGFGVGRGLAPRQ
Constant ends, left off below: GGGAGUUCUACAGUCCGACGAUC … UGGAAUUCUCGGGUGUCAAGG
Sequence | log2 enrichment
AGUCCUGUGCUACACAUCGUAUGUACCGAAUCAAACCCAAACCCAAAUUUUUUUAAAAAAGUAUUAUGUUACGCCGUUCGGAUCUGCACU | -1.05
CUGUGCUACACAUCGUAUGUACCGAAUCGGGGUUUUUUUGGGGUUUUUGGGGAAAAAGGGGAAAGUAUUAUGUUACGCCGUUCGGAUCUG | -0.26
AAGUCCUGUGCUACACAUCGUAUGUACCGAAUCGGUUUUUUUGGAAAAAGGUUUGGAAAGUAUUAUGUUACGCCGUUCGGAUCUGCACUU | -2.5
UCCUGUGCUACACAUCGUAUGUACCGAAUCGGUUUUUUGGUUUUUUGGGGUUUUUUGGGAAAGUAUUAUGUUACGCCGUUCGGAUCUGCA | -0.938
CAAGUCCUGUGCUACACAUCGUAUGUACCGAAUCGGAAAGGGAAAGGGGAAAGGGAAAGUAUUAUGUUACGCCGUUCGGAUCUGCACUUC | -0.97
GUGCUACACAUCGUAUGUACCGAAUCGGGGUUUUUUUGGGGAAAAAAAGGGGAAAAAAAGGGGAAAGUAUUAUGUUACGCCGUUCGGAUC | 0.117
CAAGUCCUGUGCUACACAUCGUAUGUACCGAAUCGGCCCGGGCCCGGGGCCCGGGGAAAGUAUUAUGUUACGCCGUUCGGAUCUGCACUU | -2.3
GCAGGAAGUAAAAACAAAUGGAAAUGCUUCGGAUAGUGGCAAGGGUGGGGGUUGCUAAGGAAAGGGUGGGAUGGGAGUGGGUAAAGAGUU | 1.28
UGUGCUACACAUCGUAUGUACCGAAUCGGGGAAAAAAAGGGGUUUUUGGGGAAAAAAAGGGGAAAGUAUUAUGUUACGCCGUUCGGAUCU | 0.455
UGCAGCAGCGCCAGGAAUCGAGGAUGGUAAAAUGACCCAGGGGAAGAAGAAGAAACGGGCCGCGAACCGCAGUAUCAUGCUGGCCAAGAA | -0.796

Series 3 — technique: protein binding microarray; form: double-stranded DNA, one strand shown; medium: in vitro; concentration: not given; reference: not given; direction: higher = stronger binding
Target: Histone acetyltransferase KAT6A, winged helix 1, GST fusion (KAT6A, Homo sapiens, UniProt Q92794, residues 1-85)
Notes: 8-mer, flanks averaged, mean of 2 arrays, mostly near background
Residues (chain): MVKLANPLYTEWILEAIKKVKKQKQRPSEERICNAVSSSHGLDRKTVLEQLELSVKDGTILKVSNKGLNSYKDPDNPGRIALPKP
Sequence | E-score
CGGACTTC | 0.199
ACGGAATA | 0.156
ATGCCCGC | 0.379
AACGTCTG | 0.00494
CGACGGCA | 0.433
ACGTTGAG | -0.11
TTAAGGAA | -0.13
ACGTGCGC | 0.332
GCCGAAGA | 0.122
CGCGCCAG | 0.374
CTATTTCA | -0.143
GACATGCC | 0.0942
CTGATTTA | -0.0436
AAGATGTG | -0.231
CACCTACC | -0.157
GACCATCC | -0.0554
TCCACGCA | 0.0231
GGCACTTA | -0.0917
CCCGTGTA | 0.218
CCGAATTA | -0.115
GCCGCGTA | 0.417
AAGAGCGG | 0.281
CGACGCAC | 0.226
GGTCGACC | 0.286
TATGCACA | -0.229

Series 4 — target: CCNB3, cyclin fold, Cln2 fusion (human); technique: yeast growth competition, sequencing; medium: yeast; notes: weak parent motif; reference: not given; direction: higher = stronger binding
Starting sequence: E2F8 docking peptide (human); FVPQRKLEVSTED
Variant | normalised enrichment score
AVPQRKLEVSTED [F1A] | 0.322
FVAQRKLEVSTED [P3A] | -0.208
FVPQRKLEVATED [S10A] | 0.525
FVPQRKLELSTED [V9L] | -0.31
FVPQRKLEFSTED [V9F] | 0.229
FVPQRALEVSTED [K6A] | 0.367
FVPQAKAEVSTED [R5A L7A] | -0.251
FVPARKLEVSTED [Q4A] | -0.483
FVPQRKAEVSTED [L7A] | 0.254
FVPQRKLEASTED [V9A] | -0.142
FVPQKKLELSTED [R5K V9L] | 0.00832

Repeated from above (series 3):
Sequence | E-score
GGCACTTA | -0.0917
TCCACGCA | 0.0231
CGGACTTC | 0.199
TATGCACA | -0.229
GACATGCC | 0.0942
ACGTGCGC | 0.332
CCCGTGTA | 0.218
CGACGGCA | 0.433
GCCGAAGA | 0.122
